# Results pooled from the literature.
# Every numbered part comes from another study and shows a few of its results, in no order. Substitutions count along the parent as printed.
# Chain of UniProt Q05940 (whole entry, looked up): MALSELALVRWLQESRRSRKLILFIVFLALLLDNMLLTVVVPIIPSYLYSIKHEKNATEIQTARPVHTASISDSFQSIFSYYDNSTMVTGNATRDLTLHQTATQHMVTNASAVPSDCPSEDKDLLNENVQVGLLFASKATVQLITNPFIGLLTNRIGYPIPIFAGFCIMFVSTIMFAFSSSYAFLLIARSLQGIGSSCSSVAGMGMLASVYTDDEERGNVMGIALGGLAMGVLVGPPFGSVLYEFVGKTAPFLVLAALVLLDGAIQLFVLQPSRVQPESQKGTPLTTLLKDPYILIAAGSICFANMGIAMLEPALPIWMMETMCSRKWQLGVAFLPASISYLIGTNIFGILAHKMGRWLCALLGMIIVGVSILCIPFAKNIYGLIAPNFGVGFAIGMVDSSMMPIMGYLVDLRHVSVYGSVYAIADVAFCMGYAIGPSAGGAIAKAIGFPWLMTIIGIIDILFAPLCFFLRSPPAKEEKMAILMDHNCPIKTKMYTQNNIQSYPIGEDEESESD
# Chain of UniProt P18825 (whole entry, looked up): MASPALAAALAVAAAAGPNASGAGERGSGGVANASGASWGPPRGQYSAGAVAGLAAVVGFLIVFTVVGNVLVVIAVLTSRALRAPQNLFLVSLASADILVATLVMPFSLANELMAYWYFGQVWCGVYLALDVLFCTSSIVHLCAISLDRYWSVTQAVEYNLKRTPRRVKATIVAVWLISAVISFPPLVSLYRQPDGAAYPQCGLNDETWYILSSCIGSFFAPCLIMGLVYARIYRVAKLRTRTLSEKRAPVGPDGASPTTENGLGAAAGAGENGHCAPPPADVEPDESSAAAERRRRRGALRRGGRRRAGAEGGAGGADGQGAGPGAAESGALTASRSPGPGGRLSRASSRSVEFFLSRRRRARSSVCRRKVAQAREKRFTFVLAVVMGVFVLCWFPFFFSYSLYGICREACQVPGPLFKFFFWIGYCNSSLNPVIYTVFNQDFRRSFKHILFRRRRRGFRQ

# Block 1
# Target: POU domain, class 5, transcription factor 1, POU domain (Pou5f1, Mus musculus, UniProt P20263, residues 131-289)
# Chain of UniProt P20263 (131-289, looked up): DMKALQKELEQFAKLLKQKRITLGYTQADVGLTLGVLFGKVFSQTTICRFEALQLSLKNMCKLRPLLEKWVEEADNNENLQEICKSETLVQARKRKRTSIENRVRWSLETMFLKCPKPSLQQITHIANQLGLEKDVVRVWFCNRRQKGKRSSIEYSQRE
# Technique: Spec-seq
# Molecule type: double-stranded DNA, one strand shown
# Medium: in vitro
# Concentration: not given
# Notes: whole probe, mean of replicates
# Baseline: not given
# Direction: lower = stronger binding
# All sequences stand within: GAGTCGTCTCGTCAGCAC … CCGTAGAGCACTCAGGTC
Strand,relative binding energy [ln ratio]
ATGCTGGT,0.658
TTGTTAAT,-1.39
ATTTCAAT,-0.668
ATCTATAT,0.175
ATCCGTAT,0.525
ATCGTTAT,0.451
ATGCGTTG,0.374
TCACTAAT,0.531

# Block 2
# Target: ATF1, bZIP domain (human)
# Technique: DHFR protein complementation
# Medium: yeast
# Notes: single substitutions, most at no-binding floor
# Baseline: wild-type JUN-FOS pair
# Direction: higher = stronger binding
# Starting sequence: JUN, bZIP domain (human); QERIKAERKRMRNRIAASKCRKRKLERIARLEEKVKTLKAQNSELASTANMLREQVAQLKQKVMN; partner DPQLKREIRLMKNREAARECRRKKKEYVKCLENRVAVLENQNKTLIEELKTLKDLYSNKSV
Change,binding fitness [natural log]
I28L,-1.39
K34V,-1.53
E33F,-1.54
Q41G,-1.52
A40H,-1.5
E32S,-1.5
L38E,-1.54
T37F,-1.54

# Other studies, line by line
Compound,tested on,test,setting,how to read,endpoint,value
COc1ccnc(C[S+]([O-])c2nc3ccc(OC(F)F)cc3[nH]2)c1OC (stereo not shown),"Synaptic vesicular amine transporter (SLC18A2, Homo sapiens, UniProt Q05940)",inhibitor,literature data,,IC50,> 10 µM
CCS(=O)(=O)N(C)[C@H]1c2cc(C#N)ccc2OC(C)(C)[C@@H]1O (racemic),mouse MPNST tumor cells,"high-content immunofluorescence imaging, item: nuclear SOX9","10 µM, 12 h, mean of 2 replicates","baseline: DMSO control, higher = more nuclear SOX9",nuclear SOX9 intensity,119 % of DMSO
C[C@H](c1ccc(F)cc1)N(Cc1ccc(Cl)c(C(=O)O)c1)C(=O)c1cnc2ccccc2c1,"Alpha-2C adrenergic receptor (ADRA2C, Homo sapiens, UniProt P18825)",cell-free assay,10 µM,,inhibition,14.2%

# Excerpt of the above (block 1):
Strand,relative binding energy [ln ratio]
TTGTTAAT,-1.39
ATTTCAAT,-0.668
